# Measurements from different studies.
# Protocols differ between the studies behind these lines. Several values in a cell are separate wells, animals, samples, runs or records. ± gives the spread as reported.
Structure (SMILES),cell line,test,setting,scale,quantity,value
COc1ccc2cc1Oc1ccc(cc1)C[C@H]1c3cc(c(OC)cc3CCN1C)Oc1c(O)c(OC)cc3c1[C@H](C2)N(C)CC3,BT-12,"cell viability, MTT","10 µM, 72 h",,inhibition,93.5%
CN(C)c1ccc(C(=O)NCCCCCC(=O)NO)cc1,HBL-1,,"1 µM, 120 h",,viability,80.1%
CCn1cc(-c2cc(Cn3ccoc3=N)cc3c2CCN([C@@H](C)c2cc(OC)ccn2)C3=O)c(C(F)(F)F)n1,NCI-H2087,"cell growth, inhibitor",120 h,,EC50,1.03 µM
O=C(C[C@@H](C(F)F)n1ccc(F)n1)N1CCC(O)(Cn2cnc3c(cnn3-c3ccc(F)cc3)c2=O)CC1,CHP-212 resistant,PI staining flow cytometry,"0.3 µM, 24 h",,cells in S phase,10.7% and 15.2% and 14.7%
COc1cc(/C=C/C(=O)N2CCC=CC2=O)cc(OC)c1OC,MDA-MB-468,"qRT-PCR, item: Survivin","30 µM, 6 h",baseline: time zero,mRNA expression,67.4 ± 3.3%
C=CC(=O)N1CCCN(C(=O)c2cc(Sc3cnc(NC(=O)C4CC4)s3)c(C)cc2OC)C[C@H]1C,human CD4 T cells,"item: LAG3, TIGIT, PD1","concentration not given, 6 days, with: chronic anti-CD3/CD28 stimulation",,exhaustion marker expression,decreased
CCC/N=C1\S/C(=C\c2ccc(OC[C@H](O)CO)c(Cl)c2)C(=O)N1c1ccccc1C,human primary astrocytes,"single-cell RNA-seq, item: NPPB mRNA","concentration not given, 24 h, with: cytokines",baseline: cytokines alone,log2 fold change,0.508
CCOC(=O)CCNc1cc(N2CCc3ccccc3CC2)nc(-c2ccccn2)n1,HBL-1,,"1 µM, 120 h",,viability,102%
Cc1[nH]c2ccccc2c1C1=C(Cl)C(=O)C(Cl)=C(N2CCOCC2)C1=O,MDA-MB-231,DCFH-DA,"1 µM, 24 h",,ROS level,increased
Cn1cc(-c2ccc(-c3cncc(Cl)c3N3CCC4(CCNC4=O)CC3)cc2)cn1,COLO 205,"gene expression, microarray, item: CYP27B1 mRNA","concentration not given, 6 h",baseline: untreated cells,log2 fold change,1.86
COc1cnc2cccc(N3CCc4c(cc(Cn5ccnc5C)cc4-c4cn(C)nc4C(F)(F)F)C3=O)c2c1,KNS-62,"cell growth, inhibitor",120 h,,EC50,8.87 µM
O=C(/C=C/c1ccc(CN(CCO)CCc2c[nH]c3ccccc23)cc1)NO,HBL-1,,"1 µM, 120 h",,viability,0.352%
O=C1NC(=O)C(c2cn(CCCn3ccnc3)c3ccccc23)=C1Nc1ccccc1,HeLa expressing Ub(G76V)-GFP,"Ub(G76V)-GFP degradation, cycloheximide chase",12 µM,,inhibition,40%
COc1cc2c(c(OC)c1OC)-c1ccc(OC)c(=O)cc1[C@@H](NC(C)=O)CC2,BT-12,"cell viability, MTT","10 µM, 72 h",,inhibition,88.9%
O=C(/C=C/C=C/C=C/C1CCCCC1)NC1=C[C@@](O)(/C=C/C=C/C=C/C(=O)NC2=C(O)CCC2=O)[C@@H]2O[C@@H]2C1=O,NCI-H1693,"cell growth, CellTiter-Glo",78 h,,GI50,12.5 µM
Nc1ncnc2c1ncn2[C@@H]1O[C@H](C[C@@H](N)CC[C@H](N)C(=O)O)[C@@H](O)[C@H]1O,HBL-1,,"1 µM, 120 h",,viability,102%
NCCNc1ncc(C(N)=O)c(Nc2cccc(C(F)(F)F)c2)n1,HeLa expressing Ub(G76V)-GFP,"Ub(G76V)-GFP degradation, cycloheximide chase",12 µM,,inhibition,26%
O=C(Nc1ccc2c(O)cc(S(=O)(=O)O)cc2c1)Nc1ccc2c(O)cc(S(=O)(=O)O)cc2c1,HBL-1,,"0.5 µM, 120 h",,viability,122%
CC[S+]([O-])c1nc(-c2ccccc2)cc(C(F)(F)F)n1 (centres unmarked),HeLa Kyoto,"RelA nuclear import, high content imaging","0.02 µM, 3 h, with: 1 µM PMA, 60 min",,cells with nuclear RelA,67.7% and 76.4%
COC(=O)/C=C/C(=O)N(O)CCCCNCc1ccc(COC(=O)Nc2cccc3ccccc23)cc1,HBL-1,,"0.1 µM, 120 h",,viability,119%
NC(=O)NOCCCCCCCCCCCCCCCC[P+](c1ccccc1)(c1ccccc1)c1ccccc1.O=C([O-])C(F)(F)F,"mouse CD4 T cells, reporter","IFNγ-YFP expression, flow cytometry",144 h,,concentration at maximal effect,0.4 µM
CCCCCCCCOC(=O)C(=O)CCC(=O)O,HBL-1,,"0.5 µM, 120 h",,viability,118%
CC/C(=N\NC(=O)NCc1cccc(O)c1)c1ccc(O)c(C)c1O,SK-OV-3,"Western blot, item: phospho-YAP","1 µM, 1 h, 3D culture, gellan gum, unit not given",baseline: total YAP,protein level,0.63 ± 0.25

# A few entries again:
Structure (SMILES),cell line,test,setting,scale,quantity,value
Cc1[nH]c2ccccc2c1C1=C(Cl)C(=O)C(Cl)=C(N2CCOCC2)C1=O,MDA-MB-231,DCFH-DA,"1 µM, 24 h",,ROS level,increased
O=C(/C=C/c1ccc(CN(CCO)CCc2c[nH]c3ccccc23)cc1)NO,HBL-1,,"1 µM, 120 h",,viability,0.352%
COc1ccc2cc1Oc1ccc(cc1)C[C@H]1c3cc(c(OC)cc3CCN1C)Oc1c(O)c(OC)cc3c1[C@H](C2)N(C)CC3,BT-12,"cell viability, MTT","10 µM, 72 h",,inhibition,93.5%
